Experimental data of several laboratories.
Each line is one published result; not all experiments were run side by side.
Technique: steady-state kinetics
B1: c3712 (Escherichia coli, UniProt A0A0H2VDD9); chain SNKIFTHSLPMRYADFPTLVDALDYAALSSAGMNFYDRRCQLEDQLEYQTLKARAEAGAKRLLSLNLKKGDRVALIAETSSEFVEAFFACQYAGLVAVPLAIPMGVGQRDSWSAKLQGLLASCQPAAIITGDEWLPLVNAATHDNPELHVLSHAWFKALPEADVALQRPVPNDIAYLQYTSGSTRFPRGVIITHREVMANLRAISHDGIKLRPGDRCVSWLPFYHDMGLVGFLLTPVATQLSVDYLRTQDFAMRPLQWLKLISKNRGTVSVAPPFGYELCQRRVNEKDLAELDLSCWRVAGIGAEPISAEQLHQFAECFRQVNFDNKTFMPCYGLAENALAVSFSDEASGVVVNEVDRDILEYQGKAVAPGAETRAVSTFVNCGKALPEHGIEIRNEAGMPVAERVVGHICISGPSLMSGYFGDQVSQDEIAATGWLDTGDLGYLLDGYLYVTGRIKDLIIIRGRNIWPQDIEYIAEQEPEIHSGDAIAFVTAQEKIILQIQCRISDEERRGQLIHALAARIQSEFGVTAAIDLLPPHSIPRTSSGKPARAEAKKRYQKAYAASLNVQESLA
B2: Ada (Mus musculus, UniProt P03958); chain MAQTPAFNKPKVELHVHLDGAIKPETILYFGKKRGIALPADTVEELRNIIGMDKPLSLPGFLAKFDYYMPVIAGCREAIKRIAYEFVEMKAKEGVVYVEVRYSPHLLANSKVDPMPWNQTEGDVTPDDVVDLVNQGLQEGEQAFGIKVRSILCCMRHQPSWSLEVLELCKKYNQKTVVAMDLAGDETIEGSSLFPGHVEAYEGAVKNGIHRTVHAGEVGSPEVVREAVDILKTERVGHGYHTIEDEALYNRLLKENMHFEVCPWSSYLTGAWDPKTTHAVVRFKNDKANYSLNTDDPLIFKSTLDTDYQMTKKDMGFTEEEFKRLNINAAKSSFLPEEEKKELLERLYREYQ
B3: DdmC (Stenotrophomonas maltophilia, UniProt Q5S3I3); chain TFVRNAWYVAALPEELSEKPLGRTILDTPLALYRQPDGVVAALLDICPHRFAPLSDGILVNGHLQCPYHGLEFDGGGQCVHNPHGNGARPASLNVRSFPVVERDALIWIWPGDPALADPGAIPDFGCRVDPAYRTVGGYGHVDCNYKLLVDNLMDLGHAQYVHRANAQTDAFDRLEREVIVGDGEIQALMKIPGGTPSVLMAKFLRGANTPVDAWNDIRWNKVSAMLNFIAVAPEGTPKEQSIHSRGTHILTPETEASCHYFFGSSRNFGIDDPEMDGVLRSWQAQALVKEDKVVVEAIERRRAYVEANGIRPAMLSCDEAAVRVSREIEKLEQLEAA
B4: UGT74D1 (Arabidopsis thaliana, UniProt Q9SKC5); chain MGEKAKANVLVFSFPIQGHINPLLQFSKRLLSKNVNVTFLTTSSTHNSILRRAITGGATALPLSFVPIDDGFEEDHPSTDTSPDYFAKFQENVSRSLSELISSMDPKPNAVVYDSCLPYVLDVCRKHPGVAAASFFTQSSTVNATYIHFLRGEFKEFQNDVVLPAMPPLKGNDLPVFLYDNNLCRPLFELISSQFVNVDDIDFFLVNSFDELEVEVLQWMKNQWPVKNIGPMIPSMYLDKRLAGDKDYGINLFNAQVNECLDWLDSKPPGSVIYVSFGSLAVLKDDQMIEVAAGLKQTGHNFLWVVRETETKKLPSNYIEDICDKGLIVNWSPQLQVLAHKSIGCFMTHCGWNSTLEALSLGVALIGMPAYSDQPTNAKFIEDVWKVGVRVKADQNGFVPKEEIVRCVGEVMEDMSEKGKEIRKNARRLMEFAREALSDGGNSDKNIDEFVAKIVR
B5: enzyme S124T (Arabidopsis thaliana, UniProt O82390); chain MNARALLCSSNIHSLYTSNRPPEKTSSSRSLRNLKPSPKSLRVWIYPRNRSSVFRVLVRSSDKSESSNSYYVEGDKVSGNNDVVSDSPSSIVLPWWEEFPKRWVIVLLCFSAFLLCNMDRVNMTIAILPMSAEYGWNPATVGLIQSSFFWGYLLTQIAGGIWADTVGGKRVLGFGVIWWSIATILTPVAAKLGLPYLLVVRAFMGVGEGVAMPAMNNILSKWVPVQERSRSLALVYSGMYLGSVTGLAFSPFLIHQFGWPSVFYSFGSLGTVWLTLWLTKAESSPLEDPTLLPEERKLIADNCASKEPVKSIPWRLILSKPPVWALISCHFCHNWGTFILLTWMPTYYHQVLKFNLMESGLLSVFPWMTMAISANAGGWIADTLVSRGFSVTNVRKIMQTIGFLGPAFFLTQLKHIDSPTMAVLCMACSQGTDAFSQSGLYSNHQDIAPRYSGVLLGLSNTAGVLAGVLGTAATGHILQHGSWDDVFTISVGLYLVGTVIWNLFSTGEKIID
B6: PhnY (uncultured bacterium HF130_AEPn_1, UniProt D0E8I4); chain MSYFTQEQKTQWKDNGFVHLKGFLNEALAQDIKDWTQELYEWEEAPGKWMKYFETSSDTGERLLCRVENFIDYHKGIKGFLCGEMIYGMVSELMGEQAVLFKEKINFKYPGGAGFAYHQDAPAFTSFGQKYHITMMVSVDASNEENGCLRMAHGFSEEKTLEQEPDGTVCKKLAAKLDWRPLETGPGDLVLFNSYVPHYSEANTSDRSRRAMFITYNRLSEGEKRLDYFKDKREKFPPEAERIEGKDYSSAESLYNLGNPIK
B7: Mj-MAT W387F/Y323W (Methanocaldococcus jannaschii, UniProt Q58605); chain MRNIIVKKLDVEPIEERPTEIVERKGLGHPDSICDGIAESVSRALCKMYMEKFGTILHHNTDQVELVGGHAYPKFGGGVMVSPIYILLSGRATMEILDKEKNEVIKLPVGTTAVKAAKEYLKKVLRNVDVDKDVIIDCRIGQGSMDLVDVFERQKNEVPLANDTSFGVGYAPLSTTERLVLETERFLNSDELKNEIPAVGEDIKVMGLREGKKITLTIAMAVVDRYVKNIEEYKEVIEKVRKKVEDLAKKIADGYEVEIHINTADDYERESVYLTVTGTSAEMGDDGSVGRGNRVNGLITPFRPMSMEAASGKNPVNHVGKIWNILANLIANDIAKLEGVKECYVRILSQIGKPINEPKALDIEIITEDSYDIKDIEPKAKEIANKFLDNIMEVQKMIVEGKVTTF
B8: COMT (Canis lupus familiaris, UniProt Q60F99); chain MGDTKEQRILRHVLQHAVAGDPQSVLEAIDTYCSQKEWAMNVGDKKGQILDAVVREQRPSVLLELGAYCGYSAVRMARLLEPGARLITIELNPDFAAITQQMLDFAGLQDRVTILTGASQDTIPELKKKHDVDTLDMVFLDHWKDRYLPDTLLLEECGLLQKGTVLLADNVICPGTPEFLAYVRGNNRFECTHFPSYLEYSKRVDGLEKVVYKGPGSPTQP
Sequence of UniProt P16050 (whole entry, looked up): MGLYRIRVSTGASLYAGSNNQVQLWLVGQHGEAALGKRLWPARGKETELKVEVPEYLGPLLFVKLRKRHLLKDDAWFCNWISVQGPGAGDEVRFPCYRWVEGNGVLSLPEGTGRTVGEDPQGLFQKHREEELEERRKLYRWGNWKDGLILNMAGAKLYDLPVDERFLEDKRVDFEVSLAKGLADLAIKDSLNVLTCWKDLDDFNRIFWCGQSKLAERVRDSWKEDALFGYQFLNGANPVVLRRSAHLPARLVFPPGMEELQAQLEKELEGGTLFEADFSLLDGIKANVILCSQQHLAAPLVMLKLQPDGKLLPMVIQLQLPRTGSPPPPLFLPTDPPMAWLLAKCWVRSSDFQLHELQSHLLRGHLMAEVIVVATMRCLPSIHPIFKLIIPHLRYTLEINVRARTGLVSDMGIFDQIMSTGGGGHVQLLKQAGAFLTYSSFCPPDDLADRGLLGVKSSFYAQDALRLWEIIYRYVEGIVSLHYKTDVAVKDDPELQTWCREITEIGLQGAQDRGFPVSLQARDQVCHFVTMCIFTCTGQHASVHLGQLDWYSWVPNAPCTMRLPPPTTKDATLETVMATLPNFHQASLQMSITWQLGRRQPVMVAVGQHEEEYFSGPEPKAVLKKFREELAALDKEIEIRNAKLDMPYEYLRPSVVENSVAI
Sequence of UniProt Q03468 (whole entry, looked up): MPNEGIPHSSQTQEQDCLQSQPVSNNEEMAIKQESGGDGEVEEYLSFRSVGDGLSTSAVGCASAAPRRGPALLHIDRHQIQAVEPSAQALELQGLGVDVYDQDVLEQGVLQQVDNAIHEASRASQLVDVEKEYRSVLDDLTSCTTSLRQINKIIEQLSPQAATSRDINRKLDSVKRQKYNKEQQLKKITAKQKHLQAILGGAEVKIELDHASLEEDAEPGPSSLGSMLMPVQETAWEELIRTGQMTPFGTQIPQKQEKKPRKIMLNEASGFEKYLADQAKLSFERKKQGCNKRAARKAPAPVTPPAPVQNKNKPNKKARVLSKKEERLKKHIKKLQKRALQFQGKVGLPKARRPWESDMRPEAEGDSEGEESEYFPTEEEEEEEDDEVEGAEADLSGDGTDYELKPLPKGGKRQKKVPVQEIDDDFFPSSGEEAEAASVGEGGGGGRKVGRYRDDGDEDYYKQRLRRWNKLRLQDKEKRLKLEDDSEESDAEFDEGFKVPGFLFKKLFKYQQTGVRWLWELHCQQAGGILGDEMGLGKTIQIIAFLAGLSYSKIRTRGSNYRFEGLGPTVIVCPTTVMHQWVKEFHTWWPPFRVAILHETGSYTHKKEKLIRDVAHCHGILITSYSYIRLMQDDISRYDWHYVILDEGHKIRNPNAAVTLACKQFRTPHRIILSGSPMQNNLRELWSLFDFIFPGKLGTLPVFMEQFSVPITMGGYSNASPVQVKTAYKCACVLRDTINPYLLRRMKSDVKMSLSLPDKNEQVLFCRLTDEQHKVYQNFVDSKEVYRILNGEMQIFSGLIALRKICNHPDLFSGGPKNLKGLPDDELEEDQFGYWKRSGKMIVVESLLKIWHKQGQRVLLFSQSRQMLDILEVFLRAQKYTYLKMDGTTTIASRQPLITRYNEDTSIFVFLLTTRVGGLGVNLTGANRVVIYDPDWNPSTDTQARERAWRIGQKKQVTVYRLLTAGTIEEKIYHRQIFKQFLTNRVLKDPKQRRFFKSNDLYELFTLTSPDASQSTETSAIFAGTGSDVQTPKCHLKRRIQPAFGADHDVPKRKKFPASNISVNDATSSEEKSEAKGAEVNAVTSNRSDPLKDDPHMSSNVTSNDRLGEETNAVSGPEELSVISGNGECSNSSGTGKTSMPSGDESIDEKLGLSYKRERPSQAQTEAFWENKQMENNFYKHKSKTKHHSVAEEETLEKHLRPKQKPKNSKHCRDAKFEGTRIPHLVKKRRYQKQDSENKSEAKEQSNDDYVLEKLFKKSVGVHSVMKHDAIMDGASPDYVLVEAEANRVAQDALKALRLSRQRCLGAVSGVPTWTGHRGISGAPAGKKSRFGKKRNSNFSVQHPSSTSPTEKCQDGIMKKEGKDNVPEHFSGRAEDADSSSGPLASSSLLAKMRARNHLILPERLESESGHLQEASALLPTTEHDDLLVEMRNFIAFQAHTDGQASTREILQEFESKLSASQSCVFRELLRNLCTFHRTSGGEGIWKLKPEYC
Sequence of UniProt O60656 (whole entry, looked up): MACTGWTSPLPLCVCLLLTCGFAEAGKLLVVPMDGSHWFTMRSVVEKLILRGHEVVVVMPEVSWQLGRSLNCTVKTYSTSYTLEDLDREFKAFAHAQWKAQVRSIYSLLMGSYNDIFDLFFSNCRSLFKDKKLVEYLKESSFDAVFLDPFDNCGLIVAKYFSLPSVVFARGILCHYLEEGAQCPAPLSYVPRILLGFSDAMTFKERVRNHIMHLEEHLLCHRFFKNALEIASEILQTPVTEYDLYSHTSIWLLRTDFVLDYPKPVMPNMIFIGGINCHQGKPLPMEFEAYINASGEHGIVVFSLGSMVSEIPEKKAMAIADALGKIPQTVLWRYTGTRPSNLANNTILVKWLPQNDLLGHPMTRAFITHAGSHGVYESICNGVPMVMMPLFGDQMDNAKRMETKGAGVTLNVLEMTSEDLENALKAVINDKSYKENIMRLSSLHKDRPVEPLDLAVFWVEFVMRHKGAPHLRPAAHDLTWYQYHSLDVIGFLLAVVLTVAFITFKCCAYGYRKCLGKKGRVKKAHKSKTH
Sequence of UniProt Q11206 (whole entry, looked up): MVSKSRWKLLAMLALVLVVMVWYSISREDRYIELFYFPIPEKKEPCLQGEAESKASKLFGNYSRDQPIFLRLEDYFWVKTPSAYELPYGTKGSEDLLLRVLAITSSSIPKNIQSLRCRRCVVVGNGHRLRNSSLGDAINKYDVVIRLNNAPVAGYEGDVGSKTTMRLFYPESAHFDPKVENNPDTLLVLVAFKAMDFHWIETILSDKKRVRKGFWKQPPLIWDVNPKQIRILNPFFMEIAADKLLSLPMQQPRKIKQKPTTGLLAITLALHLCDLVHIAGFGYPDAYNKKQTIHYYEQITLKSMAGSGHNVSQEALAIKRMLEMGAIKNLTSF

`B1 (c3712)` gave a Km of 94 µM (CCCCCCCC(=O)O; pH 7.5, 30 °C).
With `B2 (Ada)` the Km was 350 µM (Nc1ncnc2c1ncn2[C@@H]1O[C@H](CO)C[C@H]1O; mouse erythrocytes; pH 5.8, 37 °C).
With `B3 (DdmC)` the Km was 22 µM (COc1c(Cl)ccc(Cl)c1C(=O)O; apparent, together with: NADH 1 mM).
The Km of `ADE5,7 (Cryptococcus neoformans, UniProt J9VYP5)` is reported as 496 µM (NCC(=O)O; pH 8, 37 °C, apparent).
`ST3GAL4 (Homo sapiens, UniProt Q11206)` has a Km of 650 µM (CC(=O)N[C@H]1[C@H](O[C@H]2[C@@H](O)[C@@H](CO)O[C@@H](O[C@H]3[C@H](O)[C@@H](O)[C@H](Oc4ccc([N+](=O)[O-])cc4)O[C@@H]3CO)[C@@H]2O)O[C@H](CO)[C@@H](O)[C@@H]1O[C@@H]1O[C@H](CO)[C@H](O)[C@H](O)[C@H]1O; pH 6, together with: CMP-Neu5Ac 0.5 mM).
`B4 (UGT74D1)` gave a Km of 88.3 µM (O=C(O)Cc1c[nH]c2ccccc12; pH 7.5, 30 °C).
For `ERCC6 (Homo sapiens, UniProt Q03468)`, the Km was 16.5 µM (Nc1ncnc2c1ncn2[C@@H]1O[C@H](COP(=O)(O)OP(=O)(O)OP(=O)(O)O)[C@@H](O)[C@H]1O; pH 8, 30 °C, together with: Mg2+, pUC19 DNA).
The Km of `B5 (enzyme S124T)` is reported as 109 µM (O=P(O)(O)O; pH 6.5, 25 °C, apparent, not purified).
`B6 (PhnY)` has a Km of 487 µM (NCCP(=O)(O)O; apparent, two-enzyme system, together with: O2, alpha-ketoglutarate, Fe(II)).
The Km of `LovD A190T/A86V/C40A/C60N/D12G/G275S/H161Y/K26E (Aspergillus terreus)` is reported as 690 µM (CCC(C)(C)C(=O)SCCC(=O)OC; 25 °C, 10% DMSO, together with: 2 mM MJA).
The Km of `ALOX15 (Homo sapiens, UniProt P16050)` is reported as 8.8 µM (CCCCC/C=C\C/C=C\C/C=C\C/C=C\CCCC(=O)O; pH 7.5).
With `UGT1A9 (Homo sapiens, UniProt O60656)` the Vmax was 0.002 µmol/min/mg (CCCc1ccc(O)cc1; pH 7.4, 37 °C).
`B7 (Mj-MAT W387F/Y323W)` has a Km of 130 µM (CSCC[C@H](N)C(=O)O; 55 °C, together with: ATP 2.5 mM, methionine 0.05-1 mM).
`B8 (COMT)` has a Km of 1.1 µM (O=c1oc2c(O)c(O)ccc2cc1-c1nc2ccccc2s1; dog liver S9; pH 7.4, 37 °C).

Excerpt of the above:
`ST3GAL4 (Homo sapiens, UniProt Q11206)` has a Km of 650 µM (CC(=O)N[C@H]1[C@H](O[C@H]2[C@@H](O)[C@@H](CO)O[C@@H](O[C@H]3[C@H](O)[C@@H](O)[C@H](Oc4ccc([N+](=O)[O-])cc4)O[C@@H]3CO)[C@@H]2O)O[C@H](CO)[C@@H](O)[C@@H]1O[C@@H]1O[C@H](CO)[C@H](O)[C@H](O)[C@H]1O; pH 6, together with: CMP-Neu5Ac 0.5 mM).
The Km of `LovD A190T/A86V/C40A/C60N/D12G/G275S/H161Y/K26E (Aspergillus terreus)` is reported as 690 µM (CCC(C)(C)C(=O)SCCC(=O)OC; 25 °C, 10% DMSO, together with: 2 mM MJA).
